Assay results of several laboratories.
Numbers after ± are the reported error.

SMILES | test | system | conditions | plasma concentration
Cc1cc(C)c2c(c1)[C@@H](N(Cc1cc(C(F)(F)F)cc(C(F)(F)F)c1)c1nnn(C)n1)CCCN2C[C@H]1CC[C@H](C(=O)O)CC1 |  | dyslipidemic patients, plasma | oral, dose not given, 4 to 6 weeks after last dose, patients above quantitation limit | < 3 ng/mL
Cc1ccc([C@H]2C[C@@H]2COc2cc(NCc3nnc(C)s3)nc(C)n2)nc1 |  | rat (MK-801-induced hyperlocomotion), plasma | oral, 0.75 mg/kg, 2.5 h | 50 nM
COc1cc2c(cc1OC)CN(CCc1ccc(NC(=O)c3cc(OC)c(OC)cc3NC(=O)c3cnc4ccccc4c3)cc1)CC2 |  | Wistar Unilever rat, plasma | intravenous, 15 mg/kg, 3 h | 1400 ± 296 ng/mL
CCn1nc(C2CC2)cc1Nc1nc(C(=O)NCCCCCc2cccc3c2CN(C2CCC(=O)NC2=O)C3=O)nc2[nH]c3cc(-c4c(C)noc4C)c(OC)cc3c12 (stereo not drawn) |  | female SCID C.B-17 mouse, plasma | intravenous, 5 mg/kg single, 3 h | 58 ng/mL
C[C@H](Oc1ccc(-c2nc(-c3ccc4[nH]cnc4c3)no2)cc1C(F)(F)F)C(F)(F)F |  | cynomolgus monkey, aneurysm model, plasma | 0.1 mg/kg once daily, 2 h post-dose, 3 months dosing | 12 ± 2 nM
CC(C)(O/N=C(\C(=O)N[C@H]1CN2CC(C(=O)NCCN3C(=O)c4cc(O)c(O)cc4C3=O)=C(C(=O)O)N2C1=O)c1nc(N)sc1Cl)C(=O)O |  | CD-1 mouse, plasma | intravenous or subcutaneous, 50 mg/kg, 6 h | > 1000 ng/mL
N=C(N)c1ccc(CNC(=O)[C@@H]2CCN2C(=O)[C@H](NCC(=O)O)C2CCCCC2)cc1 |  | Wistar rats male, plasma | intravenous, 0.3 mg/kg, 15 min, 10 min after TF | 525 ng/mL
CS(=O)(=O)n1cc2c(n1)CN([C@H]1CO[C@H](c3cc(F)ccc3F)[C@@H](N)C1)C2 |  | healthy Japanese men, fasted, plasma | oral, 50 mg single dose, 168 h | 23.6 nM
O=C(c1ccc(-n2nc(C(F)(F)F)c3c2CCCC3)cc1)N1CCCC1 |  | rat | dose not given, 30 min | 7 to 25 ng/mL
O=C(OC(C(F)(F)F)C(F)(F)F)N1CCN(Cc2ccc(C(F)(F)F)cc2N2CCCC2)CC1 |  | wild-type mouse, plasma | oral in chow, 350 mg/kg chow, 13 days, P31 | 297 ± 74 ng/mL
OC[C@H]1O[C@@H](c2ccc(Cl)c(Cc3ccc(O[C@H]4CCOC4)cc3)c2)[C@H](O)[C@@H](O)[C@@H]1O | HPLC-MS/MS | healthy Chinese volunteers, fasting | oral, 10 mg tablet, 2.25 h | 148 ± 28.2 ng/mL
CCC(=O)N1CCC(NC(=O)Nc2ccc(OC(F)(F)F)cc2)CC1 |  | Swiss Webster mouse, plasma | oral, dose not given, 7 h | > 8 nM
